Published values of several laboratories.
Every numbered part comes from another study and shows a few of its results, in no order.

Sample 1
Target: Histone acetyltransferase KAT6A, winged helix 1, GST fusion (KAT6A, Homo sapiens, UniProt Q92794, residues 1-85)
Method: protein binding microarray
Molecule type: double-stranded DNA, one strand shown
Medium: in vitro
Tested at: not given
Setting: 8-mer, flanks averaged, mean of 2 arrays, mostly near background
Relative to: not given
Direction: higher = stronger binding
Measurement: E-score
Residues (chain): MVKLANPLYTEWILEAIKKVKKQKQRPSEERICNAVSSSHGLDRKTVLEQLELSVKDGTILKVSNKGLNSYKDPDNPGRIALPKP
CCCTCTCG: -0.0437
ACCGCCCT: -0.0213
AGTATCAC: -0.141
CCTTGAAA: -0.0618
CGCTCAGA: 0.0977
AGCACTGA: -0.248
ACCGACGT: 0.0693
AAGTTATC: -0.136
GAGATTCA: -0.204
GGATCGCC: 0.134
CAGGGTTC: -0.122
AGGCAGTA: -0.0886
CCCCATTC: -0.1
AGGGATCG: -0.0482
ACTCACAG: -0.22

Sample 2
Target: Ras GTPase-activating protein-binding protein 1, C-terminal RGG region (G3BP1, Homo sapiens, UniProt Q13283)
Sequence of UniProt Q13283 (whole entry, looked up): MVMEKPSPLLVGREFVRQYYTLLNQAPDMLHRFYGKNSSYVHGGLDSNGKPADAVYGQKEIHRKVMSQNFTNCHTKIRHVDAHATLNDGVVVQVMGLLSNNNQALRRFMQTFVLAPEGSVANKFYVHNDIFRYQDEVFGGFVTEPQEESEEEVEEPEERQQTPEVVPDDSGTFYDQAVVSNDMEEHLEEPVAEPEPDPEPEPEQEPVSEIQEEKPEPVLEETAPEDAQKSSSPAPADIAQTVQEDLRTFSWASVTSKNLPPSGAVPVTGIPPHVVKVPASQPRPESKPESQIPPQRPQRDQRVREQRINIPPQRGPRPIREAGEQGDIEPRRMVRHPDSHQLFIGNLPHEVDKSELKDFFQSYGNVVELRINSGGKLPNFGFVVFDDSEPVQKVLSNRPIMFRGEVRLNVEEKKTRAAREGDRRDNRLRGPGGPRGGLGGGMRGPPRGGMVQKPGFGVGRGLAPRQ
Method: RNA Bind-n-Seq
Molecule type: RNA
Medium: in vitro
Tested at: 1 µM
Setting: whole 134-nt RNA, ends assumed
Added: 150 mM KCl
Relative to: input library
Direction: higher = stronger binding
Measurement: log2 enrichment
All sequences stand within: GGGAGUUCUACAGUCCGACGAUC … UGGAAUUCUCGGGUGUCAAGG
GUCCUGUGCUACACAUCGUAUGUACCGAAUCAAAUUUUUUUAAAUUUUUAAACCCAAAAAAGUAUUAUGUUACGCCGUUCGGAUCUGCAC: -0.926
AGUCCUGUGCUACACAUCGUAUGUACCGAAUCGGGGUGGGGUUUGGGGUUUUUGGGGAAAGUAUUAUGUUACGCCGUUCGGAUCUGCACU: 2.06
UCCUGUGCUACACAUCGUAUGUACCGAAUCGGGGCCCCCCGGCCCCCCGGGGCCCCCCGGAAAGUAUUAUGUUACGCCGUUCGGAUCUGC: -0.532
CUGUGCUACACAUCGUAUGUACCGAAUCGGGGAAAAAAAGGGAAAAAAAGGGAAAAAAAGGAAAGUAUUAUGUUACGCCGUUCGGAUCUG: -1.7
AGUCCUGUGCUACACAUCGUAUGUACCGAAUCGGGUUUUUGGGUUUUUUUGGGUGGGAAAGUAUUAUGUUACGCCGUUCGGAUCUGCACU: 0.371
CAAGUCCUGUGCUACACAUCGUAUGUACCGAAUCGGUUUUUGGAAAAAAAGGAGGAAAGUAUUAUGUUACGCCGUUCGGAUCUGCACUUC: -1.86
CACAGACAACACGCACCCACACAGACACAGAGGGAAGGGGUUGGGAUGGGGACAGGGUGCACAGCAGGGCGGGGUAGGACCCCUGCCCCU: -1.01
UCCUGUGCUACACAUCGUAUGUACCGAAUCGGGUUUUUUUGGUUUUUUUGGUUUUUUUGGAAAGUAUUAUGUUACGCCGUUCGGAUCUGC: -0.458
CAAGUCCUGUGCUACACAUCGUAUGUACCGAAUCGGUUUUUGGAAAAAAAGGUGGAAAGUAUUAUGUUACGCCGUUCGGAUCUGCACUUC: -1.59

Sample 3
Target: Transcriptional repressor CTCF (CTCF, Homo sapiens, UniProt P49711, residues 1-727, full length assumed)
Sequence of UniProt P49711 (whole entry, looked up): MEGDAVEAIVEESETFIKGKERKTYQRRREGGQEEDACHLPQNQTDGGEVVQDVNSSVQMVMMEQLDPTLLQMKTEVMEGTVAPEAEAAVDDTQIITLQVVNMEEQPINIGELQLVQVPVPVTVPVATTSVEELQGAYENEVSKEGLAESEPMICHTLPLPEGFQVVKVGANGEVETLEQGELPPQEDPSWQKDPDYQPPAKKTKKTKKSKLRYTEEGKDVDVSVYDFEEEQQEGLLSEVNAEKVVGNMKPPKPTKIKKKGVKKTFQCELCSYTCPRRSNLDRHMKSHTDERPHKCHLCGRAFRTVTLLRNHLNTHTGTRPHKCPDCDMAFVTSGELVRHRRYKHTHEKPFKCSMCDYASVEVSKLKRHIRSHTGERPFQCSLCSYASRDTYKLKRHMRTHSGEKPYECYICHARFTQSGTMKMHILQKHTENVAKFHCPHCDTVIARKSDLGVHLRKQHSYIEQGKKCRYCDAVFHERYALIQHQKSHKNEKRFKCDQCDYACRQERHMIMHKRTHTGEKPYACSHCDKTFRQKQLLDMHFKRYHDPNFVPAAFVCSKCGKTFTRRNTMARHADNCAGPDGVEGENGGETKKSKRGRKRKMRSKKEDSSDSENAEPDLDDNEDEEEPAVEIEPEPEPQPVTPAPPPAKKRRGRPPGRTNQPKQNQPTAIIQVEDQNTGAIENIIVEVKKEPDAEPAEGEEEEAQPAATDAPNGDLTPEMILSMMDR
Method: protein-binding microarray
Molecule type: double-stranded DNA, one strand shown
Medium: in vitro
Tested at: not given
Setting: k-mer, scored over probes, only values ≥0.25
Direction: higher = stronger binding
Measurement: E-score
TAATTGCA: 0.306
AACGTATA: 0.272
TACGGTAA: 0.252
AACACAAC: 0.262
ATAAATTA: 0.411
CGCGCGCA: 0.377
ACTATATC: 0.265

Single results of other studies
PhoQ, residues 284 288 289 292 302 303 ALASRC
fold induction (PhoP, residues 12 14 15 18 19 VQALL (Escherichia coli, UniProt P23836); Sort-seq, item: YFP reporter; E. coli; PhoQ-PhoP variant library, added: 10 µM Mg2+; relative to: high Mg2+ state, higher = stronger signaling): 11.5

Repeated from above (sample 1):
GGATCGCC: 0.134
CCCTCTCG: -0.0437
AGCACTGA: -0.248
